Assay results from different studies.
Numbered parts are unrelated; each lists some results of a single study. Positions count from the first letter of the parent shown.

Sample 1 — technique: Sort-seq; item: YFP reporter; matrix: E. coli; notes: PhoQ-PhoP variant library; added: 10 µM Mg2+; relative to: high Mg2+ state; direction: higher = stronger signaling; endpoint: fold induction
Substance: PhoQ, residues 284 288 289 292 302 303 NLMGRA
PhoP, residues 12 14 15 18 19 TQCLL (Escherichia coli, UniProt P23836): 11.6
PhoP, residues 12 14 15 18 19 ICWRQ (Escherichia coli, UniProt P23836): 11.8
PhoP, residues 12 14 15 18 19 VHTVL (Escherichia coli, UniProt P23836): 12

Sample 2 — target: CCNB2, cyclin fold, Cln2 fusion (human); technique: yeast growth competition, sequencing; matrix: yeast; notes: weak parent motif; relative to: not given; direction: higher = stronger binding; endpoint: normalised enrichment score
Starting sequence: E2F1 docking peptide (human); PPVKRRLDLETDH
PPVKRRLDLETSH [D12S]: 0.587
PPVKRRLDLETDD [H13D]: 0.814
PPVKRRLDLEWDH [T11W]: 1.48
CPVKRRLDLETDH [P1C]: 0.361
RPVKRRLDLETDH [P1R]: -0.0405
PPVKRRLDLFTDH [E10F]: 0.677
PPVKRRLDLETGH [D12G]: 0.257
PLVKRRLDLETDH [P2L]: 0.327
PPVKRSLDLETDH [R6S]: -0.415
PPVCRRLDLETDH [K4C]: 0.235
PVVKRRLDLETDH [P2V]: 0.166
QPVKRRLDLETDH [P1Q]: 0.401
PPLKRRLDLETDH [V3L]: -0.63
PPVKRRLDLETNH [D12N]: -0.402
PPVKRQLDLETDH [R6Q]: 0.201
PPMKRRLDLETDH [V3M]: 0.284

Sample 3 — technique: protein-binding microarray; form: double-stranded DNA, one strand shown; matrix: in vitro; tested at: 250 nM; notes: 60-bp whole probe; added: salmon DNA 0.4 mg/ml; relative to: random background probes; direction: higher = stronger binding; endpoint: log fluorescence; all sequences stand within: GCCTAGCAC … GTCTTGATTCGCTTGACGCTGCTG
Target: Interferon regulatory factor 7, full length, phosphomimetic (IRF7, Homo sapiens, UniProt Q92985, residues 1-503, S101K/S471D/S472D/S475D/S476D/S477D/S483D/S484D/S487D)
Residues (chain): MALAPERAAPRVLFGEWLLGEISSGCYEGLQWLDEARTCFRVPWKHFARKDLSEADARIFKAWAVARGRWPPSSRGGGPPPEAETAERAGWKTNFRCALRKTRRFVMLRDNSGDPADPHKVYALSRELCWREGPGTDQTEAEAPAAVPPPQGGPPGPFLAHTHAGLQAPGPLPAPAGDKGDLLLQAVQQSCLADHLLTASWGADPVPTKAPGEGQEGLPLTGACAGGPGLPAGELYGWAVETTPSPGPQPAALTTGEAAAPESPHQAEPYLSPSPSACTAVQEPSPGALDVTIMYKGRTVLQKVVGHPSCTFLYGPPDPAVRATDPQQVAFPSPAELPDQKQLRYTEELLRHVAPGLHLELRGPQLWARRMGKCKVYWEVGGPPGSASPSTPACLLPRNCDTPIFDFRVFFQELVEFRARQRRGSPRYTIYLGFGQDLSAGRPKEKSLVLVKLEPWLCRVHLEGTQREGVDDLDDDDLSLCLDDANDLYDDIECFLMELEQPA
TCAGGTTTGTACACCGCACTGTGCTAG: 0.0326 z-score
AGCCATCTGCAGCAGGCCCCGTGCTAG: -0.709 z-score
CCACATCTCTGTCCGTGCTCGTGCTAG: 0.411 z-score
TTAGAACTGGGGTATCAATTAGTGCTA: -0.358 z-score
GACGGTATCGGGTTTCGGGAGGTGCTA: 2.39 z-score
GTAGGTTTCGGGTTTCGGTTAGTGCTA: 12 z-score
GACGGTTACCTTTTCCTGACGTGCTAG: 0.806 z-score
GACGGAATGGGTTTCGGGACGTGCTAG: 2.59 z-score
GACGATTTCCTTATCCTGACGTGCTAG: 1.04 z-score
GACGGTTTCCTACTGCTGCCGTGCTAG: 1.35 z-score
GACGGTTTCGGTTCCGGGGCGTGCTAG: 11.9 z-score
TTTCGTTACTTCCTCAAACAGTGCTAG: 4.82 z-score
GACGAACTGAGTATAGAGACGTGCTAG: -0.475 z-score
TTGGGTCTCCTACTGCTTTAGTGCTAG: -0.593 z-score
TTAGCACTGGGGACTGGATTAGTGCTA: -0.551 z-score
TAAGGTTTCCTTTTCCTTTAGTGCTAG: 7.49 z-score
TCACATGTTTTTTTCTAACTGTGCTAG: 0.919 z-score
GACGGTTTCCTTTTCCTGACGTGCTAG: 6.46 z-score
TATGTTCCCTATTTAAGACCGTGCTAG: 4.68 z-score
TCCATTATTGCTTCCTCTTTGTGCTAG: 1.14 z-score
GGCGATCTCAGTCTCGAGACGTGCTAG: -0.219 z-score
TTAGGTTTCGACACTGGATTAGTGCTA: 3.78 z-score

Sample 4 — technique: RNA Bind-n-Seq; form: RNA; matrix: in vitro; tested at: not given; relative to: input RNA pool; direction: higher = stronger binding; endpoint: bound/input enrichment
Target: RING finger protein unkempt homolog, zinc fingers 1-6, GST-SBP tag (UNK, Homo sapiens, UniProt Q9C0B0, residues 30-357)
Notes: RNA with constant flanks, human and mouse sites, ends assumed
All sequences stand within: GGGAGUUCUACAGUCCGACGAUC … CAACAGAGGAUUGAGCAUCA
Target sequence (chain): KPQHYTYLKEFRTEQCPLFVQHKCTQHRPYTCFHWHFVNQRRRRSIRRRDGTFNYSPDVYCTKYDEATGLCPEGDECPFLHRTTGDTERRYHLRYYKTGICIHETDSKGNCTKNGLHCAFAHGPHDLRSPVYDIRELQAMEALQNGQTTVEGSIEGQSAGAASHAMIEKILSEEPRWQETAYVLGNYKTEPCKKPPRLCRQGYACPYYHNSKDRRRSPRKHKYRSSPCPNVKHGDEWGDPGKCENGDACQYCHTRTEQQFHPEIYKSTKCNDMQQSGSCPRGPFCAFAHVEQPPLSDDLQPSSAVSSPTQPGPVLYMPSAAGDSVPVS
UCCCCCCCUCCACCGCCUCCUCCAGAAGAUUAUGAAGAGGAGGAAGCAGCUGUGGUUGAGUACAGCGAUCCGUACGCUGAAGAGGACCCACCGUGGGCGCCAAGGGCUUACUUGGAAAAG: 0.209 ratio
UCUCUCUCUUCUGCAGGGCCACCACCAGUUCUCCCCCCACCUUCCCUGUCUUCUGCAGGGCCACCACCAGUUCUUCCCCCACCAUCUCUCUCUUCAACAGCACCUCCACCUGUCAUGCCC: 1.72 ratio
CAGAAUUACCAGGAGUACAAUCUGGCCAACCUCAUCUACUACUCCCUGAAGGAGUCCACCACCAGUGAGCAGAGUGCCAGGAUGACCGCCAUGGACAACGCCAGCAAGAACGCUUCUGAU: 0.0983 ratio
CACUCCUCGAAGCAGGGUCACCUUUUAGGAAAGGUCCCCCACAGCUACCUCCAGUAGCUUCUUAGUUCGUGGUAGGCUUCAUGAGCCCCUCCCUGCUCUGUGCUGGGAUUUUGACUUCUG: 0.231 ratio
CUCAACCAUCCAAAUGUAAUAAAAUAUUAUGCAUCAUUCAUUGAAGAUAAUGAACUAAACAUAGUUUUGGAACUAGCAGAUGCUGGCGACCUAUCCAGAAUGAUCAAGCAUUUUAAGAAG: 0.18 ratio
AGAGCAGGUGCAUGCCGAUGGGUCAUGCAGCCCUCAGGAAGAGACGGCCAUGACAGAGCAUCAGAUGGAAGGCCCCCCUGAGGAAGCAGAGAGUCUUCAUGAGGAGGAAGAAACUCUUGC: 0.0994 ratio
GAGACUUCAAAUGCACUAAAGGUUGCUGACUGUGUAGUGGGCAAAGGAUCAAGUGAUGCCGUUUCGCCUGACACGUUCACAGCAGAAGUGAGCUCAGACGCAGUCCCUGAUGUCAGGUCA: 0.151 ratio
AAUCGAGGAGCAACAAGACCCAACGGGCCAAAUACUGGAAAUAAAAUAUGCCAGUUCAAACUGGUCCUUCUAGGAGAGUCUGCUGUUGGCAAAUCAAGCCUGGUUCUUCGCUUUGUGAAA: 0.202 ratio
AAGGAUGACUUCUUAGGAGCUGCAGAAGGAAAACUGCAAUGCAAUCGUUUAAUGCCUAAUUCACAAAAAGACUGUCAUUGUUUAGGAGAUGUCUUAAUUGAAAAUACGAAAGAAUCUAAA: 1.34 ratio
GGAAGGACUGCGCUGCAGGUUAUGAAACUUGGAAAUCCCGAGAUUGCCAGGAGACUGCUACUUAGAGGUGCUAAUCCCGAUUUGAAAGACCGAACUGGUUUCGCUGUCAUUCAUGAUGCG: 0.177 ratio
AUCAUGGCUACAAACAGACCAGAUACACUGGAUCCUGCUUUGCUGCGCCCAGGAAGAUUAGAUAGAAAAAUACAUAUCGAUUUACCAAAUGAACAAGCAAGAUUAGAUAUAUUGAAAAUC: 13.6 ratio
